# Results from different studies.
# Each line is one published result; not all experiments were run side by side. Numbers after ± are the reported error.
SMILES,assay,test system,setting,aqueous solubility
CN(C)C/C=C/C(=O)Nc1cc2c(Nc3ccc(F)c(Cl)c3)ncnc2cc1O[C@H]1CCOC1,,water,24 h,35.4 ± 21.3 µM
Cc1cc(-c2cn[nH]c2-c2cccc(OCc3cccc(C#N)c3)c2)cc(C)n1,,,,128 µg/mL
O=C(Nc1c2c(cc3c1CCC3)CCC2)NS(=O)(=O)/C=C/c1nccs1,,ammonium acetate buffer,"24 h, pH 4.50, 37°C",< 5 µg/mL
O=[N+]([O-])c1cn2c(n1)OC[C@@H](OCc1ccc(N3CCCCC3)c(F)c1)C2,,aqueous buffer,pH 7.4,5.7 µg/mL
C[C@H](O)[C@H](O)[C@H]1CNc2nc(N)[nH]c(=O)c2N1,,,estimated,~20000 µg/mL
C=CC(=O)NC1CCN(c2ncc3ncnc(Nc4ccc(Oc5ccc6c(c5)ncn6C)c(C)c4)c3n2)CC1,shake flask,aqueous buffer,"24 h, 37 °C, across pH 4.5 to 7.4",< 1 µg/mL
O=[N+]([O-])c1cn2c(n1)OC[C@@H](OCc1ccc(N3CCSCC3)cc1)C2,,aqueous buffer,pH 7.4,7.7 µg/mL
CCCCCCCCCCCC1=C(O)C(=O)C=C(O)C1=O,,,pH 7,< 250 µM
O=[N+]([O-])c1cn2c(n1)OC[C@@H](OCc1ccc(OC(F)(F)F)cc1)C2,,aqueous buffer,pH 7.4,< 10 µg/mL
O=C1N(Cc2ccccc2Cl)c2ccccc2C12NN=C(c1ccccc1)S2 (stereo not shown),,aqueous medium,,< 1000 µg/mL

# For quick reference, copied from above:
SMILES,assay,test system,setting,aqueous solubility
CN(C)C/C=C/C(=O)Nc1cc2c(Nc3ccc(F)c(Cl)c3)ncnc2cc1O[C@H]1CCOC1,,water,24 h,35.4 ± 21.3 µM
